Experimental data gathered from unrelated publications.
Lines come from different studies, so protocols differ. Values joined by “and” are separate records of one study, mostly repeats; a detail may differ. ± marks the error that the study gave.

Structure (SMILES) = CC(C)Nc1ccnc(Nc2cccc(-c3cccnc3)c2)n1; assay = measured: albumin; test system = mouse, blood; setting = intraperitoneal, 10 mg/kg; endpoint = blood chemistry; value = 3.6 g/dL
Structure (SMILES) = CN1C(=O)[C@@H](NC(=O)c2nnc(Cc3ccccc3)[nH]2)COc2cccnc21; assay = phase I single ascending dose; test system = human, male and female; setting = oral, 100 mg, fasted; endpoint = participants with TEAE leading to death; value = 0%
Structure (SMILES) = c1csc(CNc2cc[nH]n2)c1; assay = micronucleus; test system = CD-1 mouse Hsd:ICR(CD-1), female, bone marrow; setting = oral, 250 mg/kg/day, 3 days; endpoint = micronucleated PCE per 1000 PCE; value = 0.4
Structure (SMILES) = C[C@@H](NC(=O)N1C(=O)[C@H](Cc2ccnc(N)c2)[C@H]1C(=O)O)C1CCCCC1; test system = healthy adult Chinese volunteers; setting = continuous intravenous infusion, 0.3 mg/kg/h, 5-day infusion, CTCAE 5.0 grading; endpoint = incidence of mild AEs; value = 50%
Structure (SMILES) = Cn1cncc1-c1c(F)cncc1NC(=O)c1c(N)nn2cc(F)cnc12; test system = human patients; setting = oral, 220 mg once daily, 21 days, 2 weeks on 1 week off; endpoint = patients with platelet decrease DLT; value = 0%
Structure (SMILES) = C[C@]1(O)C[C@@](N)(c2ccc(-c3nc4n(c3-c3ccccc3)COc3ccncc3-4)cc2)C1; test system = human, advanced or metastatic solid tumours; setting = dose not given, all patients; endpoint = patients with grade ≥3 Fatigue TEAE; value = 5.9%
Structure (SMILES) = CCCCCCCCCCCCCCCC(=O)N[C@@H](CCC(=O)NCCCC[C@H](NC(=O)[C@H](CC(=O)O)NC(=O)[C@H](CO)NC(=O)[C@@H](NC(=O)[C@H](Cc1ccccc1)NC(=O)[C@@H](NC(=O)CNC(=O)[C@H](CCC(N)=O)NC(=O)[C@H](CO)NC(=O)[C@@H](N)Cc1c[nH]cn1)[C@@H](C)O)[C@@H](C)O)C(=O)N[C@@H](CO)C(=O)N[C@@H](CCC(=O)O)C(=O)N[C@@H](Cc1ccc(O)cc1)C(=O)N[C@@H](CC(C)C)C(=O)N[C@@H](CC(=O)O)C(=O)N[C@@H](CO)C(=O)N[C@@H](CCC(=O)O)C(=O)N[C@@H](CCCNC(=N)N)C(=O)N[C@@H](C)C(=O)N[C@@H](CCCNC(=N)N)C(=O)N[C@@H](CC(=O)O)C(=O)N[C@@H](Cc1ccccc1)C(=O)N[C@H](C(=O)N[C@@H](C)C(=O)N[C@@H](Cc1c[nH]c2ccccc12)C(=O)N[C@@H](CC(C)C)C(=O)N[C@@H](CCC(=O)O)C(=O)N[C@@H](C)C(=O)NCC(=O)NCC(=O)O)C(C)C)C(=O)O; test system = human, CrCl < 20 mL/min; setting = sc, 100 µg single dose; endpoint = injection site erythema; value = 0%
Structure (SMILES) = O=C1Nc2cc3[nH]nc(-c4ccncc4)c3cc2CN1Cc1ccccc1; assay = CTCAE v4.03; test system = advanced solid tumour patients; setting = intravenous, 0.45 mg/kg, schedules 1/2; endpoint = patients with abdominal pain; value = 0%
Structure (SMILES) = C=CC(=O)Nc1cc(Nc2nccc(Nc3cc(Cl)c(F)cc3C(C)(C)O)n2)c(OC)cc1N1CC[C@@H](N(C)C)C1; assay = treatment-emergent adverse events; test system = human; setting = oral, 400 mg, phase I clinical trial; endpoint = incidence of blood creatinine increased; value = 40%
Structure (SMILES) = CN1CC[C@@H](c2c(O)cc(O)c3c(=O)cc(-c4ccc(C(F)(F)F)cc4Cl)oc23)[C@@H]1CO; assay = measured: Constipation; test system = relapsed or refractory haematological malignancies; setting = oral, dose not given, grade ≥3; endpoint = adverse event incidence; value = 0%
Structure (SMILES) = CCCC(CCC)NC(=O)c1ccc2c(c1)OCO2; test system = Swiss albino CD-1 mice, male, bone marrow; setting = intraperitoneal, 175 mg/kg, 36 h; endpoint = micronucleated PCEs; value = 0.1%
Structure (SMILES) = CO[C@H]1C[C@@H]2CC[C@@H](C)[C@@](O)(O2)C(=O)C(=O)N2CCCC[C@H]2C(=O)O[C@H]([C@H](C)C[C@@H]2CC[C@@H](OC(=O)NCCOCCOCCOCCOCCOCCOCCOCCOCCC(=O)N3CCc4cc(Cn5nc(-c6ccc7oc(N)nc7c6)c6c(N)ncnc65)ccc4C3)[C@H](OC)C2)C[C@@H](O)[C@H](C)/C=C(\C)[C@@H](O)[C@@H](OC)C(=O)[C@H](C)C[C@H](C)/C=C/C=C/C=C/1C; test system = patients with advanced solid tumours; setting = intravenous, 10 mg weekly, grade 3 or higher; endpoint = AE leading to discontinuation; value = 0%
Structure (SMILES) = COc1ccnc(C(=O)N[C@H]2COC(=O)[C@H](Cc3ccccc3)[C@@H](OC(=O)C(C)C)[C@H](C)OC2=O)c1OCOC(=O)C(C)C; assay = aerobic dark soil incubation; test system = clay loam soil; setting = 20 °C, modelling endpoint; endpoint = DT50; value = 2.06 days
Structure (SMILES) = CCOC(=O)C1=C[C@@H](OC(CC)CC)[C@H](NC(C)=O)[C@@H](N)C1; assay = non-compartmental analysis; test system = Sprague-Dawley rats, male, plasma; setting = oral, 30 mg/kg, alone; endpoint = MRT; value = 5.9 ± 1.8 h
Structure (SMILES) = C=CC(=O)N1CC[C@H](n2nc(C#Cc3cc(OC)cc(OC)c3)c3c(N)ncnc32)C1; test system = human patients, all; setting = oral, dose not given, QD regimen, adverse drug reaction; endpoint = ALT increased, any grade; value = 18.6%
Structure (SMILES) = C=CCNc1c(O)cc2c(O)c1C[C@@H](C)C[C@H](OC)[C@H](O)[C@@H](C)/C=C(\C)[C@H](OC(N)=O)[C@@H](OC)/C=C\C=C(/C)C(=O)N2; assay = measured: Arthralgia; test system = unresectable or metastatic GIST/STS; setting = intravenous, dose not given, all doses; endpoint = patients with TEAE; value = 30%
Structure (SMILES) = COc1cc2c(Oc3ccc4[nH]c(C)cc4c3F)ccnc2cc1OCC1(N)CC1; test system = paediatric recurrent refractory sarcoma; setting = 8 mg/kg; endpoint = grade 1 or 2 Proteinuria; value = 20%
Structure (SMILES) = O=S(=O)(Nc1ccccc1)c1ccc(NC(=S)Nc2ccccc2)cc1; assay = measured: LY%; test system = male mouse, blood; setting = oral, 20 mg/kg daily, 14 days; endpoint = blood cell fraction; value = 79.4%
Structure (SMILES) = CN(C(=O)n1cnc(-c2ccc[n+]([O-])c2)c1)C1CCCCC1; test system = Wistar rat, medulla oblongata; setting = oral, 10 mg/kg/day, 4 h, repeated 5 days; endpoint = concentration; value = 99.9 ± 38.4 ng/g
Structure (SMILES) = N=C(N)NCCC[C@@H](NC(=O)[C@@H](N)Cc1ccccc1)C(=O)N[C@@H](Cc1ccccc1)C(=O)N[C@@H](CCCCN)C(N)=O; assay = LC-MS; test system = human; setting = 5 mg, 11.83 h; endpoint = median fraction excreted in urine; value = 5.47%
Structure (SMILES) = CC(C)[C@@H]1NC(=O)CNC(=O)[C@H](CC(N)=O)NC(=O)[C@H](CCCNC(=N)N)NC(=O)[C@H](Cc2ccc(O)cc2)NC(=O)[C@H](C(C)C)NC(=O)[C@@H](NC(=O)[C@@H](NC(=O)[C@H](CC(N)=O)NC(=O)[C@H](Cc2c[nH]c3ccccc23)NC(=O)[C@H](C)NC(=O)[C@H](Cc2ccccc2)NC(=O)CN)C(C)C)CSSC[C@@H](C(=O)N[C@@H](Cc2cnc[nH]2)C(=O)N[C@@H](CCCNC(=N)N)C(=O)N[C@@H](CCCNC(=N)N)C(=O)N[C@@H](C)C(=O)N[C@@H](CC(N)=O)C(N)=O)NC(=O)[C@H](C(C)C)NC(=O)[C@H](CCCNC(=N)N)NC1=O; test system = ICR mice, blood; setting = intraperitoneal, 5 mg/kg, day 5; endpoint = mean platelet volume; value = 6.5 ± 0.31 fL
Structure (SMILES) = O=C(c1ccc(F)c(F)c1Nc1ccc(I)cc1F)N1CC(O)([C@@H]2CCCCN2)C1; test system = human patients; setting = oral, dose not given, dose escalation, tablet; endpoint = adverse events; value = 100%
Structure (SMILES) = CC(C)n1c(C2CCNCC2)nc2c([N+](=O)[O-])c(Br)c(Br)cc21; assay = measured: Thrombocytopenia; test system = AML patients; setting = dose not given, all doses; endpoint = related grade ≥3 adverse events; value = 8%
Structure (SMILES) = CC[C@H](C)[C@H](NC(=O)[C@H](Cc1ccccc1)NC(=O)[C@H](CCC(=O)O)NC(=O)[C@H](CCCNC(=N)N)NC(=O)[C@H](C)NC(=O)[C@H](C)NC(=O)[C@H](CCC(N)=O)NC(=O)[C@H](CCC(=O)O)NC(=O)[C@H](CCC(=O)O)NC(=O)[C@H](CC(C)C)NC(=O)[C@H](Cc1ccc(O)cc1)NC(=O)[C@H](CO)NC(=O)[C@H](CO)NC(=O)[C@@H](NC(=O)[C@H](CC(=O)O)NC(=O)[C@H](CO)NC(=O)[C@@H](NC(=O)[C@H](Cc1ccccc1)NC(=O)[C@@H](NC(=O)CNC(=O)[C@H](CCC(=O)O)NC(=O)[C@H](C)NC(=O)CCc1cnc[nH]1)[C@@H](C)O)[C@@H](C)O)C(C)C)C(=O)N[C@@H](C)C(=O)N[C@@H](Cc1c[nH]c2ccccc12)C(=O)N[C@@H](CC(C)C)C(=O)N[C@H](C(=O)N[C@@H](CCCNC(=N)N)C(=O)NCC(=O)N[C@@H](CCCNC(=N)N)C(=O)N[C@@H](CCCCNC(=O)COCCOCCNC(=O)COCCOCCNC(=O)CC[C@H](NC(=O)CCCCCCCCCCCCCCCCC(=O)O)C(=O)O)C(=O)NCC(=O)NCC(=O)N[C@@H](CO)C(=O)N[C@@H](CCCCNC(=O)[C@H](CCCCNC(=O)[C@H](CCCCNc1c(NCCCCCN(O)C(=O)CCC(=O)NCCCCCN(O)C(=O)CCC(=O)NCCCCCN(O)C(C)=O)c(=O)c1=O)Nc1c(NCCCCCN(O)C(=O)CCC(=O)NCCCCCN(O)C(=O)CCC(=O)NCCCCCN(O)C(C)=O)c(=O)c1=O)NC(=O)[C@H](CCCCNc1c(NCCCCCN(O)C(=O)CCC(=O)NCCCCCN(O)C(=O)CCC(=O)NCCCCCN(O)C(C)=O)c(=O)c1=O)Nc1c(NCCCCCN(O)C(=O)CCC(=O)NCCCCCN(O)C(=O)CCC(=O)NCCCCCN(O)C(C)=O)c(=O)c1=O)C(=O)O)C(C)C [zirconium-89 labelled]; assay = ex vivo gamma counting; test system = Sprague-Dawley rat, male, intestine; setting = intravenous, 1 nmol, 24 h; endpoint = tissue uptake; value = 0.374 %ID/g and 0.436 %ID/g and 0.306 %ID/g and 0.302 %ID/g and 0.384 %ID/g
Structure (SMILES) = CCC[C@@](N)(CO)CCc1ccc(OCCCCCC(C)C)cc1; test system = dog, male hounds, plasma; setting = oral capsule, 5 mg/kg, geometric mean; endpoint = Cmax; value = 385 nM
Structure (SMILES) = C[C@]1(CO)Cc2ncn(-c3ccc(C#N)c(Cl)c3)c2C(=O)O1; test system = healthy Japanese adults, plasma; setting = 3 mg once daily, after first dose, multiple dose; endpoint = Tmax; value = 30 min
Structure (SMILES) = COc1ccc(-c2c(-c3ccc(C#N)c(F)c3)nc(N3CCC(N)CC3)n(C)c2=O)cc1F; assay = measured: Anemia; test system = human patients; setting = oral, dose not given, dose escalation, NG; endpoint = serious adverse event incidence; value = 0%
Structure (SMILES) = CC(=O)c1c(C)c2cnc(Nc3ccc(C4CCN(CCS(C)(=O)=O)CC4)cn3)nc2n(C2CCCC2)c1=O; test system = human, dose-escalation trial, plasma; setting = oral, 75 mg twice daily, day 21, multiple doses; endpoint = clearance; value = 1360 mL/min
Structure (SMILES) = C[C@H]1C[C@@H](N2C(=N)N[C@](C)(c3cccc(NC(=O)c4cccc(C#N)c4)c3Cl)CC2=O)CCO1; test system = Han Wistar rat male; setting = oral, 1000 mg/kg, 7 days; endpoint = free Cmax; value = 5030 ng/mL

For quick reference, copied from above:
Structure (SMILES) = c1csc(CNc2cc[nH]n2)c1; assay = micronucleus; test system = CD-1 mouse Hsd:ICR(CD-1), female, bone marrow; setting = oral, 250 mg/kg/day, 3 days; endpoint = micronucleated PCE per 1000 PCE; value = 0.4
Structure (SMILES) = CCCC(CCC)NC(=O)c1ccc2c(c1)OCO2; test system = Swiss albino CD-1 mice, male, bone marrow; setting = intraperitoneal, 175 mg/kg, 36 h; endpoint = micronucleated PCEs; value = 0.1%
Structure (SMILES) = C=CC(=O)Nc1cc(Nc2nccc(Nc3cc(Cl)c(F)cc3C(C)(C)O)n2)c(OC)cc1N1CC[C@@H](N(C)C)C1; assay = treatment-emergent adverse events; test system = human; setting = oral, 400 mg, phase I clinical trial; endpoint = incidence of blood creatinine increased; value = 40%
Structure (SMILES) = CC(C)[C@@H]1NC(=O)CNC(=O)[C@H](CC(N)=O)NC(=O)[C@H](CCCNC(=N)N)NC(=O)[C@H](Cc2ccc(O)cc2)NC(=O)[C@H](C(C)C)NC(=O)[C@@H](NC(=O)[C@@H](NC(=O)[C@H](CC(N)=O)NC(=O)[C@H](Cc2c[nH]c3ccccc23)NC(=O)[C@H](C)NC(=O)[C@H](Cc2ccccc2)NC(=O)CN)C(C)C)CSSC[C@@H](C(=O)N[C@@H](Cc2cnc[nH]2)C(=O)N[C@@H](CCCNC(=N)N)C(=O)N[C@@H](CCCNC(=N)N)C(=O)N[C@@H](C)C(=O)N[C@@H](CC(N)=O)C(N)=O)NC(=O)[C@H](C(C)C)NC(=O)[C@H](CCCNC(=N)N)NC1=O; test system = ICR mice, blood; setting = intraperitoneal, 5 mg/kg, day 5; endpoint = mean platelet volume; value = 6.5 ± 0.31 fL
Structure (SMILES) = COc1cc2c(Oc3ccc4[nH]c(C)cc4c3F)ccnc2cc1OCC1(N)CC1; test system = paediatric recurrent refractory sarcoma; setting = 8 mg/kg; endpoint = grade 1 or 2 Proteinuria; value = 20%
